Measured values from different studies.
Each numbered part is a random draw from the data of one study; scales do not carry over between parts.

Study 1
Target: TAR DNA-binding protein 43, full length, His tag (TARDBP, Homo sapiens, UniProt Q13148, residues 1-414)
Technique: RNA Bind-n-Seq
Molecule type: RNA
Medium: in vitro
Concentration: 20 nM
Notes: 6-mer, flanks averaged, single round
With: 150 mM LiCl
Baseline: input library
Reading: higher = stronger binding
For `GCCACG`, “6-mer enrichment (R)” read 0.93.
`AGGAGU`: “6-mer enrichment (R)” 1.03.
`GCCGCA`: “6-mer enrichment (R)” 0.946.

Study 2
Target: Prothrombin, mature alpha-thrombin (F2, Homo sapiens, UniProt P00734)
Technique: aptamer microarray, sandwich
Molecule type: DNA with 2'F-ANA
Medium: in vitro
Concentration: 200 nM
Notes: whole 15-mer aptamer, many near background
With: Cy3 exosite-II aptamer, 400 nM
Reading: higher = stronger binding
For `GGTTGGTGTGGTTGG (2'F-ANA at 1 2 3 6 8 9 10 14 15)`, “mean fluorescence intensity” read 57.5 a.u.
`GGTTGGTGTGGTTGG (2'F-ANA at 2 3 5 6 10 13)` — result for “mean fluorescence intensity”: 47.8 a.u.
For `GGTTGGTGTGGTTGG (2'F-ANA at 3 6 8 12 15)`, “mean fluorescence intensity” read 1330 a.u.

Further values, each from its own experiment
CBF1 full length, N-terminal tag: Centromere-binding protein 1, full length, N-terminal tag (CBF1, Saccharomyces cerevisiae, UniProt P17106, residues 1-351)
Sequence of UniProt P17106 (whole entry, looked up): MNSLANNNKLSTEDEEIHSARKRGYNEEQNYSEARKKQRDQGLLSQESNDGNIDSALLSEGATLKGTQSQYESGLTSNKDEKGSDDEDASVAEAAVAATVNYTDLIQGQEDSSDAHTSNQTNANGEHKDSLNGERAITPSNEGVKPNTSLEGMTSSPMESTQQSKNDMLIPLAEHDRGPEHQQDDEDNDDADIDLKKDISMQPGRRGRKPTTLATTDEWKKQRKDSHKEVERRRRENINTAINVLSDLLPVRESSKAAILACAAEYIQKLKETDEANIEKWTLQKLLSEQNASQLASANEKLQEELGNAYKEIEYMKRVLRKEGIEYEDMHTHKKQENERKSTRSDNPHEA
`GAACCCAAAATGTGTAACATCATCGAGTATAATTAGGTCTTGATTCGCTTGACGCTGCTG` gave a fluorescence intensity of 524 a.u. (CBF1 full length, N-terminal tag; protein-binding microarray; double-stranded DNA, one strand shown, in vitro; 0.8 µM, whole 60-bp probe, no competitor; higher = stronger binding).
With `PhoQ, residues 284 288 289 292 302 303 TNSAEL` the fold induction was 5.67 (PhoP, residues 12 14 15 18 19 NYFRM (Escherichia coli, UniProt P23836); Sort-seq, item: YFP reporter; E. coli; PhoQ-PhoP variant library, with: 10 µM Mg2+; baseline: high Mg2+ state, higher = stronger signaling).
`GAAATCTGTGCCGGGCGGGTGATGTCCGGGCGATAGGTCTTGATTCGCTTGACGCTGCTG` gave a fluorescence intensity of 497 a.u. (CBF1 full length, N-terminal tag; protein-binding microarray; double-stranded DNA, one strand shown, in vitro; 0.8 µM, whole 60-bp probe, no competitor; higher = stronger binding).

Excerpt of the above (further values, each from its own experiment):
`GAACCCAAAATGTGTAACATCATCGAGTATAATTAGGTCTTGATTCGCTTGACGCTGCTG` gave a fluorescence intensity of 524 a.u. (CBF1 full length, N-terminal tag; protein-binding microarray; double-stranded DNA, one strand shown, in vitro; 0.8 µM, whole 60-bp probe, no competitor; higher = stronger binding).
